Measured values of several laboratories.
Numbered parts are unrelated; each lists some results of a single study.

Block 1 — method: EMSA with sequencing; molecule type: double-stranded DNA, one strand shown; medium: in vitro; tested at: 10 and 20 nM; baseline: negative control set to 0; direction: higher = stronger binding; endpoint: normalised bound fraction
Target: Hepatocyte nuclear factor 3-alpha (Foxa1, Mus musculus, UniProt P35582, residues 1-468, full length assumed)
Notes: whole designed probe, mean of two concentrations, ends assumed
All sequences stand within: GTGAGCGGTGCCCATTGATGGGGAAC … TTTCACTGGGATCGTGGGGAC
Construct (chain): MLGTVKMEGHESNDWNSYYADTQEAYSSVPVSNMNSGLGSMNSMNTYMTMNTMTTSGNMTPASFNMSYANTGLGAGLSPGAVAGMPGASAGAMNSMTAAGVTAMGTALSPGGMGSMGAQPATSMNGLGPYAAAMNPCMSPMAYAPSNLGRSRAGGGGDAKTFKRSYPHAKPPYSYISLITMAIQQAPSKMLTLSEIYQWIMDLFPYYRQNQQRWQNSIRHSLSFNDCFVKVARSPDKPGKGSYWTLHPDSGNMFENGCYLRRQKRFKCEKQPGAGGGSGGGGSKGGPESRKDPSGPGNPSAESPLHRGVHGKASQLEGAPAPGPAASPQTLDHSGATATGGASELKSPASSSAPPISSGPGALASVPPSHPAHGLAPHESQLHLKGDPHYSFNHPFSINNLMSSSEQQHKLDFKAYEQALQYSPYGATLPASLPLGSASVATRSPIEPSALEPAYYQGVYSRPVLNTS
AAGACCGGCAGCCTCTGGTTCCTGTTGTTGTTTTTTAAGTGCGCGGAGGCGCAGGCGAAACTCGGAGTTTCCAACTCGTTGCTTATTTTGCAAAGTAATCTAGCAAATGTTATGTGCATAACCTTCGCTGTCTCGCTAAAGGTCAGCGCGCCCCTGCTCATTTCCCGGGCTGCCTTTTGGGGGCACTCTGATG: 0.00983 ratio
CTATGTGCTGCCCCCAGAGGTGGAGTGTACAGAGGCAGGCAGGCTTCCTTGAGCTGCAGTGAGTTCCACCCAGTTTGAGCTTCCTGGCTGCTTTGTTTACCTACTCAAGCCTCAGCAATGGCGACGCCCCTCCCTCAGCCTGGCTGCTGTCTTGCAGTTAGATCTCAGACTGCTGTGCCAGCAGTGAGCAAGG: 0.396 ratio
ATCTTCCCCCTCTTCCTTGCCCCACCAGCTCACCTTCCCGGGTTATTTGCAGATAGGAAAATAAATAAAGCCGGCATTCGTTAACCCTCTTCTGGCGCAAACTGCTGTTTGCTCTGGATGAATCATGGTCCTTGCCCGCGGGGCGGCTAATGCAGAGCAAAGCACCGTGTCAGGGCCATGATCCGGGGTGGCC: 0.356 ratio
CCTAGGACCATCTTCTACTTATGAGAGTGAACTTCACTGTATGTCACCAATTCCGTACCTTGTCTATTGTTTAATAGTCGAGATACTGTCAAAGTAAACAAATGCTGCGACGATGTGGACTGAAGGGTATGGTCTTAACTCCAAATAAGCAAAGGAAGAAAAATACGTTTCTGGTTCGGCCTTTTCTCTCAGA: 0.507 ratio
GAACCTCTCCTTTTTCTAAAGACTTTTATAGGCATTTTTTTTTCTTCTTCTCAGCATGTGAACCAATGTGTAACTCAAATAGATGTTACTTTGCAGATTACTTAGATTGTTTTAAAAGGCTAGCTGTGTGGAGGAATGAGGAAGGAAGGGAGGCGGGAGTGGCTGGAGTTTTTTTTTTTCTCAGATGACCTAA: -0.0278 ratio
TTAAGTTGGCAAAATTTAGGAAGCCAGATGATGCCAGATTTTGGCAGGACTTTGAGGATATTGGAACCATTACAGGTTCCTATGACTCAGCAAAGATTGCATAGGTTATGAGAGAACATGTAAGGAATTGTTTATTAAGGCATTATTTGAAGTGGCAATGAGTTGGAGGACATTCGCAAATCCATCACTGAGA: 0.101 ratio
CAGTACTTAATAAGTACAAAAAAGTCTATAGCGACACTATTTATAATTTTAAAAATGATTGAAGTCAATTAACATTTAAGTGTTAAAAAGAAAGTAAACAACCCAAATATACACAAACAGTAGACTGCTCTGGCTTGCATACAGAGAGGTCCATTGCCCTTTTGGGTGGGCCTAAGAAGCACTTCTGGGGAGA: 0.337 ratio
GTCATTTATTTCATGTTGTCCTGAGATTGGATCTAAACTTTGAGCTCCTAATCATTGCTCAGATTGTGTGGCCTCGTAAGATTGTGCGTAATAAGTAAACAAGCATCTGTACACTTGTTAACTTAATGAGCTTCTGTATGTGACACTTTAAGCCTTTTTAAAAATTAAGTGCTGGGCTATGCTTGGTGTCTCA: 0.414 ratio

Block 2 — method: aptamer microarray, sandwich; molecule type: DNA with 2'F-ANA; medium: in vitro; tested at: 200 nM; with: Cy3 exosite-II aptamer, 400 nM; direction: higher = stronger binding; endpoint: mean fluorescence intensity; sequence: GGTTGGTGTGGTTGG
Target: Prothrombin, mature alpha-thrombin (F2, Homo sapiens, UniProt P00734)
Notes: whole 15-mer aptamer, many near background
2'F-ANA at 2 3 4 7 9 14: 304 a.u.
2'F-ANA at 5 6 10 11 14 15: 107 a.u.
2'F-ANA at 1 2 3 4 6 8 9 10 11 15: 56.5 a.u.
2'F-ANA at 2 4 5 7 8 10 11 14 15: 73.7 a.u.
2'F-ANA at 1 3 7 9 11 13 15: 218 a.u.
2'F-ANA at 4 7 8 9 10 12 13 15: 88.7 a.u.
2'F-ANA at 1 2 5 8 9 12 13 14 15: 68.5 a.u.
2'F-ANA at 1 3 4 6 8 10 11 12: 70.7 a.u.
2'F-ANA at 3 4 9 10 11 13 14: 201 a.u.
2'F-ANA at 3 8 9 10 11 13: 424 a.u.
2'F-ANA at 1 2 5 6 7 8 10 11 13 14 15: 50.7 a.u.
2'F-ANA at 3 4 6 8 10 11 12 13 14: 144 a.u.
2'F-ANA at 1 4 10 13: 43.7 a.u.
2'F-ANA at 1 4 8 14 15: 58.3 a.u.
2'F-ANA at 2 3 7 10 13 15: 406 a.u.
2'F-ANA at 2 3 4 8 10 15: 258 a.u.
2'F-ANA at 4 5 6 7 8 10 12 15: 51.7 a.u.
2'F-ANA at 5 6 8 9 10 11 12 13 14 15: 46.5 a.u.
2'F-ANA at 1 2 3 5 6 9 10 11 13 14 15: 48.4 a.u.
2'F-ANA at 4 5 6 12 13: 84.7 a.u.
2'F-ANA at 2 3 6 7 8 9 10 11 12 15: 326 a.u.
2'F-ANA at 1 2 8 9 10 13 14 15: 47 a.u.
2'F-ANA at 1 2 3 5 6 7 11 13 14: 51.4 a.u.
2'F-ANA at 2 3 4 6 9 11 12 14 15: 228 a.u.
2'F-ANA at 2 3 5 6 9 10 11 12 13 14 15: 50.8 a.u.

Block 3 — method: RNA Bind-n-Seq; molecule type: RNA; medium: in vitro; tested at: 365 nM; baseline: no-protein control; direction: higher = stronger binding; endpoint: RBNS enrichment (R)
Target: RNA binding protein fox-1 homolog 2, RRM domain, GST-SBP tag (RBFOX2, Homo sapiens, UniProt O43251-10, residues 100-194)
Notes: natural RNA segment, single round, ends assumed
All sequences stand within: GGGAGUUCUACAGUCCGACGAUC … UGGAAUUCUCGGGUGCCAA
Residues (chain): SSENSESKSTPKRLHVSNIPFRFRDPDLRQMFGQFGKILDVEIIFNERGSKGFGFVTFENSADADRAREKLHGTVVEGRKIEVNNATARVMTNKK
GACUGGUGGCCUGCAAAUAGCAUCCGUUGAUCUGUGUUAACUGCAUAGGGAGGGCUCUGCAUAGCACCUGCUAUAGCGGUGUCAUGUUGGAUCGCUUUUGUGACUGUUCA: 0.322
GUUAUUCCUUCUUUCCAACCAGCUUUGCUCGAGUUAGAAUUUUGUUAUUUUCAAAUAAAAAAUAGUUUGGCCACUUAACAAAUUUGAUUUAUAAAUCUUUCAAAUUAGUU: 1.11
GCCAUGCUUGCCUAUUUGCUGUAUACAUGUAAUGAAAUUGUAGAUAAAGUGUAGUGCAUUGAAACAAAUGAACAAAAAAGUAGAUACUUUUACUAUACAAGGGUGCUGGU: 0.715
CCCAGGCUGGAGUGCAGUGGUGUGAUCUUGGCUUUCUGCAACGUCUGCCUUCCAGGUUGAAGAGGUUCUCCUGCCUCAGCCUCCUUAGUAGUGGGAUUACAGGUGCCCGC: 0.508
GUAUUCUGCAUAUGGGCUGGCUUUGGUGAAGCUGAUGACUGGACUUCUAAGAACCGUUUUCCCAAAUGGGUUCCCAUAUUCAUGCACCCAAAGCAAUGGUCCCCAAGCAC: 0.774
CUCAGGUAGUGAUGAAUUAGUUGCUGUCACAAAAGGAGGGAAGUAGCACCCAAAUUAAGUUGCUUAAGAGAGGAAAUGUACAUCUUGUAUAACUUAGGGAGCGAAGAAAA: 0.494
AAUUUGAUUUCCAUUUUAAGGUGGUGUCUGUGCAGCUGGUGUCCCCGAUUCUGGCUGUCCUAUGUCCAGGAAGAAGCCCAUUUGUUGAGGCUGACCUUCCUGAUCAUACA: 0.304
UGCAGAUGUGCAUUUUCCUUUUGGUAGAAAUGGUCCACAGCACUAACUGGUAAGGCUUAUUGUACAGUAUAUUGUCAGUAUUCUUCUGGUUCAGCAUACCUUAUAGUUCG: 0.631
UUUUUUUUUGAGACAGAGUCUCGCUCUGUCGCCCAGGCUGGAGGGCAGUGGCACGAUCUCAGCUCACUGCAAGCUCCAACUCCCGGGUUCACGCCAUUCUCCUGCCUCAG: 0.308
AGUGAAAAGUUUGUAUUCUGCCUCUAAAGUUCCUCAACAAAUACUCGAGUUACACAUAUGCAUAUGUCACACUGUCACUCAGUGUGUGGAUAUGCCUAUGUCACACUGUC: 0.221
GAAGUCCCUACCAUCCUUGUUUAGUCUAUAUUAAGAAAAUCUGUGUCUUUUUAAUAUUCUUGUGAUGUUUUCAGAGCCGCUGUAGGUCUCUUCUUGCAUGUCCACAGUAA: 16.6
UCCUUAAUUGUAGCCUUUGAAGGAUCCCCUGUUAGACCGCCAGUCAGUGCCACGAGUUGAAAGCUUCCAUACUGAACACUAUCCUUUCACUAUAUAAGUAAAGCAAAUAU: 0.501

Block 4 — method: RNA Bind-n-Seq; molecule type: RNA; medium: in vitro; tested at: not given; baseline: input RNA pool; direction: higher = stronger binding; endpoint: bound/input enrichment
Target: RING finger protein unkempt homolog, zinc fingers 1-6, GST-SBP tag (UNK, Homo sapiens, UniProt Q9C0B0, residues 30-357)
UniProt Q9C0B0, sequence (30-357, looked up): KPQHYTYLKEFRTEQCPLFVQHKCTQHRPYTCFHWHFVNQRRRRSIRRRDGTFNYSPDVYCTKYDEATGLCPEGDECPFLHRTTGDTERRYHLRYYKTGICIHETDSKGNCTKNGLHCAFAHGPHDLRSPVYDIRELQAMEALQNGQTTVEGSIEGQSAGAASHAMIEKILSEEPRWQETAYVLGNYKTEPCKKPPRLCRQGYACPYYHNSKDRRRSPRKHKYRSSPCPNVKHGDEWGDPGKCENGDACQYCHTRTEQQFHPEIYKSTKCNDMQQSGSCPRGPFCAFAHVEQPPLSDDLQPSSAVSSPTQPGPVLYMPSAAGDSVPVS
Notes: RNA with constant flanks, human-mouse chimeric sites, ends assumed
All sequences stand within: GGGAGUUCUACAGUCCGACGAUC … CAACAGAGGAUUGAGCAUCA
AAAUCAUGUGUGUCCAAUAUUGAAAGUGCUUUAUCUACACUCCAGUAUGUAAGCAGUAUAGUAGUUUCUUUAGAGAAUAGGUCAGCCAUUGUGAAGUACAAUGCAAGCUUAGUCACUCCA: 6.66 ratio
GAUAAGAAAAGCUUGUUGGAGACCCGCUUGCAUGUCACUGGUAGAGAACUGAGGUCCCAAAUAGCUGAAACUUUCGGACUUCAAGAAAAUUACAUCAAGAUCGUAAUAAAUAAGAAACAG: 0.348 ratio
AAAGUGGACUAUGGCGAAUACAUGGAUAAAAAUAAUGUGAGGCGGCAAGCAACAACAAUCAUAGCUGAUAACAUUAUAUUUCUGAGUGACCAGACAAAAGAAAAGGCAUAGAACGGAUGA: 1.49 ratio
UACUCAACUUUCUUGCCACAUUUUGAAUUCCAAGAUGUUAUUCCUCCAGAUGACUUCCUAACUAGUGAUGAAGAGCAAGAUUUGGUUUUAUUUGGAACUAUGAGAGGACAAGUUGUUGGA: 0.322 ratio
UCUGGUCACACUCGUGUAUAUGGUGUGUGCUUUGUGGACACUUCACUGGGCAAGUUUUUCAUCGGCCAGUUUUCGGAUGACCGCCACUGUUCGAGAUUUAGGACGCUAGUGGCUCACUAU: 0.256 ratio
GUGACUGGUGUUAAGAUUUACCCUCAGCAAAGAAGUGUAGCAGUGACCAUAAUUCCAUCUGUGGUGAGUGCCAGUCAGAUUGUGGAGCUGGUCCCAGACCUCAGUUUAGACAUGGGAACU: 0.351 ratio
UGGCGCCUGCGCUCCCCACUCGUGUUUUUAAGUGUAUUUUUAUAAGACAUGUGUAUUUACAAUUGAGCUUUUGUUACAUAAUGCUGAAAUGCUACUGCAAUAUUAUGAAAAUGUUUCAAU: 0.13 ratio
UGUGCCCCACAAGAUCCUACCUGAGUGGCAGCUGAAGUUGACUCCCUCUCCUUGCCUGAACCCCCCCCCACUGCCCCCCCAUCCCCCAGUGUCGGCUAUUCUCUGGUCUCUGCACGGUUC: 0.44 ratio
GAUAAGAAAAACUUGUUGGAGACCCGCUUGCAUGUCACUGGUAGAGACCUGAGGUGUCAAAUAGCUGAAACUUUCGGAUUUCAAGAAAAUUACAUCAAAAUUGUCAUAAAUAAGAAACAG: 0.501 ratio
UUAAUCCCCUUUACUGCUCCCCCACUUCUCAUGGUAAUAACAAAGUCUUAUAUCCCCGUCCUAGCUUUCACUCAGAUGGCUUAUGGAGCCGGUUUCCUAUCUUUCUUGGGUGGGAUCAGA: 0.303 ratio
CUGGCCUGGCCCUCCCCAGGGGCCUCCUUUCGUAUAGUCACUGCUUCUGCUACGGAUACUUUCAGCUCCAAGUCCUGACUGGGUGGGGCACCCAUUUCAGGCAGAAGGUUUUGGUACCCU: 0.205 ratio
